Measured values collected from several papers.
Each numbered part is a random draw from the data of one study; scales do not carry over between parts.
UniProt P07332, sequence (whole entry, looked up): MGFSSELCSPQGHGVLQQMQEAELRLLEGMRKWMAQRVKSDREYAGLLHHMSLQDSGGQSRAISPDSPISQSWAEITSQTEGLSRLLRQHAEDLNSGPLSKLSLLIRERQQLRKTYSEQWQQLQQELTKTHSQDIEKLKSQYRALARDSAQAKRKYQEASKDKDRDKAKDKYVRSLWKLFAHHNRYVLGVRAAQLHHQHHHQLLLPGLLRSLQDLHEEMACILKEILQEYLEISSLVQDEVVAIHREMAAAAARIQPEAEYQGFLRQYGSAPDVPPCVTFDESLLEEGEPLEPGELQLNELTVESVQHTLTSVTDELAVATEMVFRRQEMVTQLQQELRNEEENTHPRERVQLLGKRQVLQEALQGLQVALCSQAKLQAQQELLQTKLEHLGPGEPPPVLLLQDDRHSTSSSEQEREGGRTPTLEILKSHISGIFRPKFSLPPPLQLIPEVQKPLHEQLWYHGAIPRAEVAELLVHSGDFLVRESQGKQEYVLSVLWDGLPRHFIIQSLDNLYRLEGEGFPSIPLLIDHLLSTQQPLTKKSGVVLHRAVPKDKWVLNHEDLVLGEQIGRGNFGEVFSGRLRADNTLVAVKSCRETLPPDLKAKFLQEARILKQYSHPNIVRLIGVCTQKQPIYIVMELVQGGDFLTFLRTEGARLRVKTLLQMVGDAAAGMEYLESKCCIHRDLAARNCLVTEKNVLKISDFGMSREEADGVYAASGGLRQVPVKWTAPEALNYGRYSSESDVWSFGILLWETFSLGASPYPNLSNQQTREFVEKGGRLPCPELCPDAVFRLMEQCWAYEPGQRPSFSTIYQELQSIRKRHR
UniProt Q8IVH8, sequence (whole entry, looked up): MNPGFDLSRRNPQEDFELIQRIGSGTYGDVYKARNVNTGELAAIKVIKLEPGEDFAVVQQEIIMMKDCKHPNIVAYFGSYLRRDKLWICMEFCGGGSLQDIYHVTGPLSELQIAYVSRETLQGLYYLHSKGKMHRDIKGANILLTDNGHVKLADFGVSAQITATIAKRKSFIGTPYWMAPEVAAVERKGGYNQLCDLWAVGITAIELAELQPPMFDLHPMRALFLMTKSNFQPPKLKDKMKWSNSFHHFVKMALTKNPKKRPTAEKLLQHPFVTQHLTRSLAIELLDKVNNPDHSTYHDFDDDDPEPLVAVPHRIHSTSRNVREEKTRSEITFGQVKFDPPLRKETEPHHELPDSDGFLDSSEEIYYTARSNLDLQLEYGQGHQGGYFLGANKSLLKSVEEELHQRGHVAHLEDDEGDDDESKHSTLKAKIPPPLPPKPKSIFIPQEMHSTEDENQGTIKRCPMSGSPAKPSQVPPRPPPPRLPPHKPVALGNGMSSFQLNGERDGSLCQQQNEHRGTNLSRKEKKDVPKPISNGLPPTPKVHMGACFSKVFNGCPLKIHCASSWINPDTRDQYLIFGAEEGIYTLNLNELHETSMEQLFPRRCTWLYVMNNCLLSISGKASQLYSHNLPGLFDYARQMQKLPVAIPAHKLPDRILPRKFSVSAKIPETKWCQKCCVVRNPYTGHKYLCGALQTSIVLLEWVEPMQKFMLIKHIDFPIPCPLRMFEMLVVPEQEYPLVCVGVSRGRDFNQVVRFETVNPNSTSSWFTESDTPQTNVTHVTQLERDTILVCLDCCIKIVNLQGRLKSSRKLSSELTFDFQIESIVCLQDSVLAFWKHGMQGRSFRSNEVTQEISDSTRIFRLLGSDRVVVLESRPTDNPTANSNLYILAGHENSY
UniProt Q6PHR2, sequence (whole entry, looked up): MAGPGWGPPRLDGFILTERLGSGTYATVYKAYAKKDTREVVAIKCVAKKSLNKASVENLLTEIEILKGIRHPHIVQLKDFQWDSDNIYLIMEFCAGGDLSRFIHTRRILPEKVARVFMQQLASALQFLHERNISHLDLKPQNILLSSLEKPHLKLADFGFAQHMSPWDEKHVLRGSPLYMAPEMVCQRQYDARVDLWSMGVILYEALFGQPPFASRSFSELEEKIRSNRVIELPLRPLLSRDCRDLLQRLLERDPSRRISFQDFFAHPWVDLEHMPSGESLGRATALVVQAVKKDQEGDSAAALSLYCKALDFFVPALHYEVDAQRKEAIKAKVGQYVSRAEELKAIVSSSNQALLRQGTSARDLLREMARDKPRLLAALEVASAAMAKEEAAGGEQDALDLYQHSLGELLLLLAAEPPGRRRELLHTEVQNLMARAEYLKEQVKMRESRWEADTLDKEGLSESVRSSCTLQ
UniProt P46734, sequence (whole entry, looked up): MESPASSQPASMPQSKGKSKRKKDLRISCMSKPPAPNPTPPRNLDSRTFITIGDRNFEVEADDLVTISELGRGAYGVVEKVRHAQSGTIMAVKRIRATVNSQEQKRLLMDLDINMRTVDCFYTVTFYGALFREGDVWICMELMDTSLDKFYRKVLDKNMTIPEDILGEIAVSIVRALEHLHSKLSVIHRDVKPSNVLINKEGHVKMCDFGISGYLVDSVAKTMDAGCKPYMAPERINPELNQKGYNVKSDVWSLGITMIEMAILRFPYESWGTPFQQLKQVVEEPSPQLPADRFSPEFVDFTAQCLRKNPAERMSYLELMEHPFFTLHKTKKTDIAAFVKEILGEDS
UniProt Q8WU08, sequence (whole entry, looked up): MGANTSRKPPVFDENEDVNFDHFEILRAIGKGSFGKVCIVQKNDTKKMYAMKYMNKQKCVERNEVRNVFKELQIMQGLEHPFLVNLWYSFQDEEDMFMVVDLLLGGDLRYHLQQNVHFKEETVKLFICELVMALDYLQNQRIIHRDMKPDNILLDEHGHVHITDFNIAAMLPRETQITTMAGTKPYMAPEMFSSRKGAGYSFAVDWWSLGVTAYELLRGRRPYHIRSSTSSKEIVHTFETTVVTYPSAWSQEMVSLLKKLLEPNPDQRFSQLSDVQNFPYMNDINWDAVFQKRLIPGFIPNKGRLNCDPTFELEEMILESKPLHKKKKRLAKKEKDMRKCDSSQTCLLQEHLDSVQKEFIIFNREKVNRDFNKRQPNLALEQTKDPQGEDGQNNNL
UniProt P51451, sequence (whole entry, looked up): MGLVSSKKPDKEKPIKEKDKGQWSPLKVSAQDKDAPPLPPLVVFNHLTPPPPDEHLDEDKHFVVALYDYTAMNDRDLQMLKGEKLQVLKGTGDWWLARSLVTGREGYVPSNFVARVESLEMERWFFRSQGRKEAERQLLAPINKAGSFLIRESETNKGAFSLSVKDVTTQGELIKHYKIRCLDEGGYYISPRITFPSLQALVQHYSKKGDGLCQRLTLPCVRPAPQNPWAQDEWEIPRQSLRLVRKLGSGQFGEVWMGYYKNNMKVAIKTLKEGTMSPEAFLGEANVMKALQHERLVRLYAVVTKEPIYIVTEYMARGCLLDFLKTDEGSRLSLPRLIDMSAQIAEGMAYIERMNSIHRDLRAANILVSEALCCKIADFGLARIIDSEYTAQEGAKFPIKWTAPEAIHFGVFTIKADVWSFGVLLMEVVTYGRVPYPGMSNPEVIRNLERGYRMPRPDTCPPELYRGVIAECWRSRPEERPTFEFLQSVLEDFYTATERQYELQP
UniProt P35968, sequence (whole entry, looked up): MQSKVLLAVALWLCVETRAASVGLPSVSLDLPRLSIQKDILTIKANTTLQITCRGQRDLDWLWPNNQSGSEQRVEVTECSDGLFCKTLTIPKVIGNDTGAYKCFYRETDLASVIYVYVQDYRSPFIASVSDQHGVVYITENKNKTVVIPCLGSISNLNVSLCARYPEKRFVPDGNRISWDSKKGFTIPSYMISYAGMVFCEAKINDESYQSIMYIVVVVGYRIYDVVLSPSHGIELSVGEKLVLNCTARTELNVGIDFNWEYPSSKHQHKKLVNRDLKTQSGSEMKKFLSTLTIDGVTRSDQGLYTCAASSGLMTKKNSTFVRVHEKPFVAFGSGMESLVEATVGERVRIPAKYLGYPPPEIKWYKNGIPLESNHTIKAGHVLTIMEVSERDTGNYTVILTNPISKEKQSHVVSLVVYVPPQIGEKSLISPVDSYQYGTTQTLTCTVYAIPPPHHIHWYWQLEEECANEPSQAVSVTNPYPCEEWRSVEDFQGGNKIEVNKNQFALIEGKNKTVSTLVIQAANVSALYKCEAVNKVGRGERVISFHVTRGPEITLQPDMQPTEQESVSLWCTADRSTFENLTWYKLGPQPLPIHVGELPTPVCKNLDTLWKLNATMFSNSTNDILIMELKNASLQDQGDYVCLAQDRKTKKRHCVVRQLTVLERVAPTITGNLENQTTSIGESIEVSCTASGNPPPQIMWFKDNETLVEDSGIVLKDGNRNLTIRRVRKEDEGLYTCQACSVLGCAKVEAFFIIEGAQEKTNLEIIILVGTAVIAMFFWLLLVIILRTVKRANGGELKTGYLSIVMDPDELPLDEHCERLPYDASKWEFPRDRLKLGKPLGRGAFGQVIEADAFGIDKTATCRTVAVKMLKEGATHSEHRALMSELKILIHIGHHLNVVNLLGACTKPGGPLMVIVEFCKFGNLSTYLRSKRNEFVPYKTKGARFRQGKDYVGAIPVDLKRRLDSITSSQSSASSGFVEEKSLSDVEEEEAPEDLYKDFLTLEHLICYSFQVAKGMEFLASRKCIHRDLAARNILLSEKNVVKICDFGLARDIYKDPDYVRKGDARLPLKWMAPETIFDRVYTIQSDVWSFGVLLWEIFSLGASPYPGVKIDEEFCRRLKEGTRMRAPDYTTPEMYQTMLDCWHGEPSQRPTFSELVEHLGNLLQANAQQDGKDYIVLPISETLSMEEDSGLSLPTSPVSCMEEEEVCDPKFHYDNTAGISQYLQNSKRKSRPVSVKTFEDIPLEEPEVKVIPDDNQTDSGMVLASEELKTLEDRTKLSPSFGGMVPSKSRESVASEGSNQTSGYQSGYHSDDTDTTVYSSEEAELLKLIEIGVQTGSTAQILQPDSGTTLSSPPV

Sample 1
Compound: Cc1sc(C(=O)NC2COC2)cc1-n1cc(NC(=O)Nc2c(F)cccc2Cl)cn1
Observed: enzyme activity
Concentration: 10 µM
Baseline: untreated control
Quantity: remaining activity
GRK7 (Homo sapiens, UniProt Q8WTQ7): 98.3%
WNK3 (Homo sapiens, UniProt Q9BYP7): 101%
Cell division cycle 7-related protein kinase, with DBF4 (CDC7, Homo sapiens, UniProt O00311): 99.5%
MAP3K5 (Homo sapiens, UniProt Q99683): 89.7%
DAPK3 (Homo sapiens, UniProt O43293): 99.5%
MAP4K3 (Homo sapiens, UniProt Q8IVH8): 117%
JAK3 (Homo sapiens, UniProt P52333): 95.2%
LIM domain kinase 1 (LIMK1, Homo sapiens, UniProt P53667): 104%
MAP2K2 (Homo sapiens, UniProt P36507): 97.5%
ULK3 (Homo sapiens, UniProt Q6PHR2): 99.5%
ERBB4 (Homo sapiens, UniProt Q15303): 94.6%
ARAF (Homo sapiens, UniProt P10398): 83.2%
KDR (Homo sapiens, UniProt P35968): 87.5%

Sample 2
Host: mouse
Matrix: microsomes or S9
Concentration: 2 µM
Time: 0.5 h
Quantity: remaining compound
Oc1c2ccc(-c3ccc[nH]3)nc2nn1-c1ccccc1: 5.28%
CC(C)CC(O)C1CCN(C(=O)CCCn2cncn2)CC1 (stereo not drawn): 26%
CON(C)C(=O)[C@H]1CCCN1C(=O)OC(C)(C)C: > 99%
c1ccc(-c2nc(-c3ccc(-c4noc(-c5ccco5)n4)cc3)cs2)cc1: 43.6%
CC(C)N(C1=CC(=O)OC12CCCCC2)C(C)C: 6.24%
COc1ccccc1Nc1nc(N)nc(CN(C)Cc2ccco2)n1: 1.98%
CCS(=O)(=O)CC(=O)N1CC(C)(C)N(C)c2cc(Br)ccc21: 13%
Clc1n[nH]c2c(CN(Cc3ccccc3)CC3CCCO3)cncc12 (stereo not drawn): 87.2%
c1ccc(C(Nc2ccc3nccnc3n2)c2ccccc2)cc1: 1.77%
Cc1noc(-c2cccn3c(=O)n(Cc4c(C)noc4C)nc23)n1: 0.782%
CN1CCCN(c2nc(CN3CCCCC3)nc3scc(-c4ccccc4)c23)CC1: 35%
CCOC(=O)c1cccc(NC(=O)N2Cc3c(sc4c3CCCC4)-n3cccc3C2C)c1 (stereo not drawn): 2.56%
Cc1cc(C(=O)Nc2ccc3ccccc3c2)no1: 45.6%

Sample 3
Cell line: HaCaT
Concentration: 100 µM
Time: 18 h
Quantity: viability
CC(C)C[C@H](NC(=O)CNC(=O)c1cc(Cl)ccc1Cl)B1OC(=O)C(CC(=O)O)(CC(=O)O)O1: 22.5%
OCCN1CCN(CC/C=C2/c3ccccc3Sc3ccc(C(F)(F)F)cc32)CC1: 16.9%
COc1ccc(C(C)=O)c(O)c1: 95.5%
C/C=C1\NC(=O)[C@H]2CSSCC/C=C/[C@H](CC(=O)N[C@H](C(C)C)C(=O)N2)OC(=O)[C@H](C(C)C)NC1=O: 18.7%
CCCCOc1ccc(OCCCN2CCOCC2)cc1: 97.3%
CCCCc1nc(Cl)c(CO)n1Cc1ccc(-c2ccccc2-c2nn[nH]n2)cc1: 111%
CCC1=C(C)CN(C(=O)NCCc2ccc(S(=O)(=O)NC(=O)N[C@H]3CC[C@H](C)CC3)cc2)C1=O: 98.5%
Cc1ccc(S(=O)(=O)NC(=O)NN2CC3CCC[C@@H]3C2)cc1 (stereo in doubt): 94.2%
CN(C)CCCN1c2ccccc2Sc2ccc(Cl)cc21: 17.7%
CN(C)[C@@H](CCOc1cccc2ccccc12)c1ccccc1: 15.7%
Nc1nc(N)c2nc(-c3ccccc3)c(N)nc2n1: 65.4%
C=C1CC[C@@H]2[C@](C)(CO)[C@H](O)CC[C@@]2(C)[C@@H]1C/C=C1/C(=O)OC[C@H]1O: 78.8%
Cc1cc(=O)oc2cc(O)ccc12: 53.7%
Nc1ccc(S(=O)(=O)Nc2nccs2)cc1: 77.3%
COc1cc(C)c(/C=C/C(C)=C/C=C/C(C)=C/C(=O)O)c(C)c1C: 92.5%

Sample 4
Compound: CCS(=O)(=O)c1cc2cc(C[C@](O)(CC(C)(C)c3ccc(F)cc3C(N)=O)C(F)(F)F)[nH]c2cn1
Concentration: 1 µM
Quantity: remaining binding
STK25 (Homo sapiens, UniProt O00506); cell-free assay, competition with immobilised ligand: 86%
MELK (Homo sapiens, UniProt Q14680); cell-free assay, competition with immobilised ligand: 100%
CAMKK1 (Homo sapiens, UniProt Q8N5S9); cell-free assay, competition with immobilised ligand: 100%
MAP3K7 (Homo sapiens, UniProt O43318); cell-free assay, competition with immobilised ligand: 100%
BLK (Homo sapiens, UniProt P51451); cell-free assay, competition with immobilised ligand: 100%
FES (Homo sapiens, UniProt P07332); cell-free assay, competition with immobilised ligand: 100%
YES1 (Homo sapiens, UniProt P07947); cell-free assay, competition with immobilised ligand: 100%
STK32A (Homo sapiens, UniProt Q8WU08); cell-free assay, competition with immobilised ligand: 84%
Tyrosine-protein kinase ABL1, phosphorylated (ABL1, Homo sapiens, UniProt P00519, F317I); binding: 94%
CAMKK2 (Homo sapiens, UniProt Q96RR4); cell-free assay, competition with immobilised ligand: 100%
MAP2K3 (Homo sapiens, UniProt P46734); cell-free assay, competition with immobilised ligand: 100%
TEK (Homo sapiens, UniProt Q02763); cell-free assay, competition with immobilised ligand: 90%
Tyrosine-protein kinase ABL1, phosphorylated (ABL1, Homo sapiens, UniProt P00519, T315I); cell-free assay, competition with immobilised ligand: 85%
TYRO3 (Homo sapiens, UniProt Q06418); cell-free assay, competition with immobilised ligand: 81%
Cyclin-dependent kinase 4, with cyclin D3 (CDK4, Homo sapiens, UniProt P11802); cell-free assay, competition with immobilised ligand: 97%
PAK1 (Homo sapiens, UniProt Q13153); cell-free assay, competition with immobilised ligand: 95%

Excerpt of the above (sample 3):
COc1ccc(C(C)=O)c(O)c1: 95.5%
C/C=C1\NC(=O)[C@H]2CSSCC/C=C/[C@H](CC(=O)N[C@H](C(C)C)C(=O)N2)OC(=O)[C@H](C(C)C)NC1=O: 18.7%
CCCCc1nc(Cl)c(CO)n1Cc1ccc(-c2ccccc2-c2nn[nH]n2)cc1: 111%
Nc1nc(N)c2nc(-c3ccccc3)c(N)nc2n1: 65.4%
CC(C)C[C@H](NC(=O)CNC(=O)c1cc(Cl)ccc1Cl)B1OC(=O)C(CC(=O)O)(CC(=O)O)O1: 22.5%
Cc1ccc(S(=O)(=O)NC(=O)NN2CC3CCC[C@@H]3C2)cc1 (stereo in doubt): 94.2%
